Measurements gathered from unrelated publications.
Each line is one published result; not all experiments were run side by side.
SALL4 full length isoform A: Sal-like protein 4, full length isoform A (SALL4, Homo sapiens, UniProt Q9UJQ4, residues 1-1053)
UniProt Q9UJQ4, sequence (whole entry, looked up): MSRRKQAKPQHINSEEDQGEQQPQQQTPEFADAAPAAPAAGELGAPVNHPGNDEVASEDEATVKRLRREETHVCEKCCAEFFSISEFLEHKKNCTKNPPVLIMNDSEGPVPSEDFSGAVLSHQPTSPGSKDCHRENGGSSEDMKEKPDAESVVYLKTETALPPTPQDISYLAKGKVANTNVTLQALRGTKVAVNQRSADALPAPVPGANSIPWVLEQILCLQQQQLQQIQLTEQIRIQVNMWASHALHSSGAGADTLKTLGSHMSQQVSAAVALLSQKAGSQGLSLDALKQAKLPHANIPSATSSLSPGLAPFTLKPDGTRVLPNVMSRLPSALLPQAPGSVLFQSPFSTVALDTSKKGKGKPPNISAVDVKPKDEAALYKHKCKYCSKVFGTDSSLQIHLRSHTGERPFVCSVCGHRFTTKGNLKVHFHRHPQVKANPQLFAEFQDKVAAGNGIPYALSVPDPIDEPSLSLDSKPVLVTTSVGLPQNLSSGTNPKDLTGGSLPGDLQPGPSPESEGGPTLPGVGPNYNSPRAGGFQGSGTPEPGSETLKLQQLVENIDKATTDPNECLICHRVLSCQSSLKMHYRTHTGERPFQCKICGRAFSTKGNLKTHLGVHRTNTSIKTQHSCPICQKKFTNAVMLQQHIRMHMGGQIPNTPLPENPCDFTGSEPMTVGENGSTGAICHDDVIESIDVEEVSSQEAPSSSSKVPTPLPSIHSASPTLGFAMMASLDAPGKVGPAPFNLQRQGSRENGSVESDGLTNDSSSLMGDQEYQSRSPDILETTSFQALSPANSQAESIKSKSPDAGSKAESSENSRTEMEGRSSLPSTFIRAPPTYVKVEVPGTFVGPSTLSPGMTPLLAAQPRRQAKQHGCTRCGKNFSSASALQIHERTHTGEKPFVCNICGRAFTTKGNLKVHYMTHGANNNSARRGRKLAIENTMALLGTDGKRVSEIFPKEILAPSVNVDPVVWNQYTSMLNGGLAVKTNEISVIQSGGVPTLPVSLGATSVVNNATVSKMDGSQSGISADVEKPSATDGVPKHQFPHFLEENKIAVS
RBFOX2 RRM domain, GST-SBP tag: RNA binding protein fox-1 homolog 2, RRM domain, GST-SBP tag (RBFOX2, Homo sapiens, UniProt O43251-10, residues 100-194)
TARDBP full length, His tag: TAR DNA-binding protein 43, full length, His tag (TARDBP, Homo sapiens, UniProt Q13148, residues 1-414)

`AGCGCACG` gave an E-score of 0.339 (Histone acetyltransferase KAT6A, winged helix 1, GST fusion (KAT6A, Homo sapiens, UniProt Q92794, residues 1-85); protein binding microarray; double-stranded DNA, one strand shown, in vitro; not given, 8-mer, flanks averaged, mean of 2 arrays, mostly near background; baseline: not given, higher = stronger binding).
`AAGCTAGC` gave an E-score of -0.0956 (SALL4 full length isoform A; universal PBM; double-stranded DNA, one strand shown, in vitro; 600 nM, 8-mer, flanks averaged, mean of replicates; higher = stronger binding).
For `GGGAGUUCUACAGUCCGACGAUCAUGUAUACUUGGUGGUAGAGGGCUUGCUUGAAGACCCAAGUUCCAUCCCUAGCACCACAGAGCAGGGAGGGGACACAGAUUUAGGAGAGAUUUGUCUUUUUCUCCUUUGGUGGAAUUCUCGGGUGCCAA`, “RBNS enrichment (R)” read 0.362 (RBFOX2 RRM domain, GST-SBP tag; RNA Bind-n-Seq; RNA, in vitro; 365 nM, natural RNA segment, single round, ends assumed; baseline: no-protein control, higher = stronger binding).
Under “6-mer enrichment (R)”, `CGACUU` is recorded as 0.838 (TARDBP full length, His tag; RNA Bind-n-Seq; RNA, in vitro; 20 nM, 6-mer, flanks averaged, single round, added: 150 mM LiCl; baseline: input library, higher = stronger binding).
For `GGGAGUUCUACAGUCCGACGAUCUGCUGCAGGGAUGGAGUGGCGUUUUCUUAUUGCUGUAUGUAUUGUACAUAGUGGAGUAGUUAGUUACCUGAUAACAGUCUUGUUAUUUGGGUCUCUUAGACCUUACCUCUUGGAAUUCUCGGGUGCCAA`, “RBNS enrichment (R)” read 0.364 (RBFOX2 RRM domain, GST-SBP tag; RNA Bind-n-Seq; RNA, in vitro; 365 nM, natural RNA segment, single round, ends assumed; baseline: no-protein control, higher = stronger binding).
With `ATGTCAAA` the E-score was 0.286 (SALL4 full length isoform A; universal PBM; double-stranded DNA, one strand shown, in vitro; 600 nM, 8-mer, flanks averaged, mean of replicates; higher = stronger binding).
`GCCTAGCACTCAGCTCTGCGGTTCAGACTGTGCTAGGTCTTGATTCGCTTGACGCTGCTG` gave a log fluorescence of -0.315 z-score (Interferon regulatory factor 5, full length, phosphomimetic (IRF5, Homo sapiens, UniProt Q13568-2, residues 1-514, K96S/S451D/S453D/S456D/S462D); protein-binding microarray; double-stranded DNA, one strand shown, in vitro; 250 nM, 60-bp whole probe, added: salmon DNA 0.4 mg/ml; baseline: random background probes, higher = stronger binding).
The fold induction of `PhoQ, residues 284 288 289 292 302 303 SNSSNI` is reported as 0.944 (PhoP, residues 12 14 15 18 19 TTLRV (Escherichia coli, UniProt P23836); Sort-seq, refers to: YFP reporter; E. coli; PhoQ-PhoP variant library, added: 10 µM Mg2+; baseline: high Mg2+ state, higher = stronger signaling).
`GCCUUA` — result for “6-mer enrichment (R)”: 0.983 (TARDBP full length, His tag; RNA Bind-n-Seq; RNA, in vitro; 20 nM, 6-mer, flanks averaged, single round, added: 150 mM LiCl; baseline: input library, higher = stronger binding).

A few entries again:
For `GGGAGUUCUACAGUCCGACGAUCAUGUAUACUUGGUGGUAGAGGGCUUGCUUGAAGACCCAAGUUCCAUCCCUAGCACCACAGAGCAGGGAGGGGACACAGAUUUAGGAGAGAUUUGUCUUUUUCUCCUUUGGUGGAAUUCUCGGGUGCCAA`, “RBNS enrichment (R)” read 0.362 (RBFOX2 RRM domain, GST-SBP tag; RNA Bind-n-Seq; RNA, in vitro; 365 nM, natural RNA segment, single round, ends assumed; baseline: no-protein control, higher = stronger binding).
